# Assay results collected from several papers.
# Numbers after ± are the reported error.
# Method: steady-state kinetics
# B1: protein (Allochromatium vinosum, UniProt P45370); chain MFPIDIRPDKLTQEMLDYSRKLGQGMENLLNAEAIDTGVSPKQAVYSEDKLVLYRYDRPEGAPEAQPVPLLIVYALVNRPYMTDIQEDRSTIKGLLATGQDVYLIDWGYPDQADRALTLDDYINGYIDRCVDYLREAHGVDKVNLLGICQGGAFSLMYSALHPDKVRNLVTMVTPVDFKTPDNLLSAWVQNVDIDLAVDTMGNIPGELLNWTFLSLKPFSLTGQKYVNMVDLLDDPDKVKNFLRMEKWIFDSPDQAGETFRQFIKDFYQNNGFLNGGVVLGGQEVDLKDITCPVLNIFALQDHLVPPDASRALKGLTSSPDYTELAFPGGHIGIYVSGKAQKEVTPAIGKWLNER
# B2: PRP43 R159A (Saccharomyces cerevisiae, UniProt P53131); chain MGSKRRFSSEHPDPVETSIPEQAAEIAEELSKQHPLPSEEPLVHHDAGEFKGLQRHHTSAEEAQKLEDGKINPFTGREFTPKYVDILKIRRELPVHAQRDEFLKLYQNNQIMVFVGETGSGKTTQIPQFVLFDEMPHLENTQVACTQPRRVAAMSVAQAVAEEMDVKLGEEVGYSIRFENKTSNKTILKYMTDGMLLREAMEDHDLSRYSCIILDEAHERTLATDILMGLLKQVVKRRPDLKIIIMSATLDAEKFQRYFNDAPLLAVPGRTYPVELYYTPEFQRDYLDSAIRTVLQIHATEEAGDILLFLTGEDEIEDAVRKISLEGDQLVREEGCGPLSVYPLYGSLPPHQQQRIFEPAPESHNGRPGRKVVISTNIAETSLTIDGIVYVVDPGFSKQKVYNPRIRVESLLVSPISKASAQQRAGRAGRTRPGKCFRLYTEEAFQKELIEQSYPEILRSNLSSTVLELKKLGIDDLVHFDFMDPPAPETMMRALEELNYLACLDDEGNLTPLGRLASQFPLDPMLAVMLIGSFEFQCSQEILTIVAMLSVPNVFIRPTKDKKRADDAKNIFAHPDGDHITLLNVYHAFKSDEAYEYGIHKWCRDHYLNYRSLSAADNIRSQLERLMNRYNLELNTTDYESPKYFDNIRKALASGFFMQVAKKRSGAKGYITVKDNQDVLIHPSTVLGHDAEWVIYNEFVLTSKNYIRTVTSVRPEWLIEIAPAYYDLSNFQKGDVKLSLERIKEKVDRLNELKQGKNKKKSKHSKK
# B3: protein (UniProt A0A4Y6I1F8); chain MGSEVVSKKHEFGALEVEGIDFRASVAALGSTKKLVLGGAGFRGLEINGNLVKFTAIGIYVEEAIIPHLSPKLGGKTVEELCANELLFEEVLSAPFDKLIRVVFLLPLTGPQYSEKVVERIGLLPNPGLKEESIKQFLEIFKAENFPPRTSLVCSFTEDGLKIAFMKGPDFPEESDAVIEDKYFARAFLATIIAKDGVSPMAKLSFAERVSKYL
# B4: enzyme (Bifidobacterium adolescentis, UniProt A1A3M6); chain MIRRYLNTVEESKMISGAGAMNPVCPREDGRLEWGNGVVSMLFDTAGDSPVRLCNVAGRGMGPIGGRVTDDGRTVLERDPRPIVEVRAANTGSQDNRLTLIATVAGSVLRFVSAAASEPEEGSAEPYRLEIVQFASYAELEPHGRAFEPTAAERAEAAAQPSPETVRHADATAGLVVTSVFEAFPGLSAVRTYTRLSSARPLPIEAVSSLNLTVPMRVNCGKIDHSRVFWGDSAWAVENDWRSRPLRDVSVRNRNQVINPGQSSSRFAMSSASTWSTGVHEPAGIVQVEGSRRQSRDFSVMWQIEHNGPWEWEIGEDDPGLHISAFGPEYQDHHWYTELGEGHDFESVPVSFAISAGDWQQSVAEMTLQRRALRAAKARELGRSEQFERTQGLVIYNDYMNTLFGDPRLEKELPLVEGAARVGADIFCIDAGWYDSTDGGWWDMVGEWQASTNRFGEAGLKGLADTIRAHGMGLGLWLEPEVIGVKSPLAQSLPDDAFFQRHGVRVCDSGRYLLDFRSPAAREHVTRTVNRLIDDFGAVFFKFDYNTVPGVGTDLDAESAGAGLLGHCRAYLDWLDDLRRRHPDVMIENCGSGAMRADYAQLQRLDLQSTSDQCDPLIYAAIAAGAGLTILPEQQGNWGYAQQEMDDETAVFTLATGILGRLYLSGFIDRMDEHRLALVRDAVALHRRVLTEQQELVPFWPARLPDFDGDWLVVGLRHPSFLPSEDDDSCDYIIVWRRGGTPSVNVPLSEDCHIEQIFPNPAVPEHAPDAKPWTVERMDPETVRLNAATSKQPSARIFAIR
# B5: PduO F112A (Limosilactobacillus reuteri, UniProt Q50EJ2); chain MKIYTKNGDKGQTRIIGKQILYKNDPRVAAYGEVDELNSWVGYTKSLINSHTQVLSNELEEIQQLLFDCGHDLATPADDERHSFKFKQEQPTVWLEEKIDNYTQVVPAVKKAILPGGTQLASALHVARTITRRAERQIVQLMREEQINQDVLIFINRLSDYFFAAARYANYLEQQPDMLYRNSKDVFR
# B6: enzyme D235A (Thermococcus kodakarensis, UniProt Q5JID5); chain MLYVEILGNLPEMARDEVKAMLELGGGEIIGQDYLFLKVDAGEKAFPFLDRLGLAHEYGLLLVEADSVEELLQKAGEVEWPIKGAFKVDTETMANCRHDVLDLPRKLGAVIHAQGFRVNLSKPDTVVRVYCGERLYAGIRLRYFDPKDFEKRKAHHRPFFRPISLHPRVSRALVNLTKATREILDPFMGAGGILIEAGLLGLRVYGVDIRPEMVEGAETNLKHYGVRDYTLKLGAATRLEDLFPDKKFEAVATDPPYGTAATLAGRKRDELYRKALRSIYNVLEDGGRLAIAFPTDFNGKAEAEAVGFRTLGRYYQRVHKSLERYFYVFEK
# B7: protein G96D/P94L (Streptomyces coelicolor, UniProt P16544); chain MATQDSEVALVTGATSGIGLEIARRLGKEGLRVFVCARGEEGLRTTLKELREAGVEADGRTCDVRSVPEIEALVAAVVERYGPVDVLVNNAGRLGDGATAELADELWLDVVETNLTGVFRVTKQVLKAGGMLERGTGRIVNIASTGGKQGVVHAAPYSASKHGVVGFTKALGLELARTGITVNAVCPGFVETPMAASVREHYSDIWEVSTEEAFDRITARVPIGRYVQPSEVAEMVAYLIGPGAAAVTAQALNVCGGLGNY
Substance,substrate,conditions,kcat [s⁻¹]
B1 (protein),CC[C@@H](O)CC(=O)SCCNC(=O)CCNC(=O)[C@H](O)C(C)(C)COP(=O)(O)OP(=O)(O)OC[C@H]1O[C@@H](n2cnc3c(N)ncnc32)[C@H](O)[C@@H]1OP(=O)(O)O,"pH 7.8, 30 °C",98.1
B2 (PRP43 R159A),Nc1ccn([C@@H]2O[C@H](COP(=O)(O)OP(=O)(O)OP(=O)(O)O)[C@@H](O)[C@H]2O)c(=O)n1,"pH 8, KCl 100 mM, without Pfa1, with: polyA 0.2 mM, magnesium acetate 2.5 mM",6.1 ± 0.3
B3 (protein),O=C(/C=C/c1ccc(O)cc1)c1c(O)cc(O)cc1O,,156 ± 12.9
B4 (enzyme),O=[N+]([O-])c1ccc(O[C@H]2OC[C@H](O)[C@H](O)[C@H]2O)cc1,"pH 5, 40 °C",81.5 ± 0.51
B5 (PduO F112A),Nc1ncnc2c1ncn2[C@@H]1O[C@H](COP(=O)(O)OP(=O)(O)OP(=O)(O)O)[C@@H](O)[C@H]1O,"pH 8, 37 °C, anoxic, with: cob(I)alamin",0.0056
"Ptb (Listeria monocytogenes, UniProt Q8Y7B7)",CCCCC(=O)SCCNC(=O)CCNC(=O)[C@H](O)C(C)(C)COP(=O)(O)OP(=O)(O)OC[C@H]1O[C@@H](n2cnc3c(N)ncnc32)[C@H](O)[C@@H]1OP(=O)(O)O,"pH 7.5, 25 °C, apparent",676 ± 19
B6 (enzyme D235A),C[S+](CC[C@H](N)C(=O)O)C[C@H]1O[C@@H](n2cnc3c(N)ncnc32)[C@H](O)[C@@H]1O,"pH 7.5, 50 °C, apparent",0.00117 ± 0.0005
B7 (protein G96D/P94L),O[C@H]1CCCc2ccccc21,"pH 7.4, phosphate 400 mM, NADPH 250 µM printed, with: NADP+, reverse reaction",0.23 ± 0.02
"WlbA (Thermus thermophilus, UniProt Q72KX8)",CC(=O)N[C@H]1[C@@H](OP(=O)(O)OP(=O)(O)OC[C@H]2O[C@@H](n3ccc(=O)[nH]c3=O)[C@H](O)[C@@H]2O)O[C@H](C(=O)O)[C@@H](O)[C@@H]1O,"pH 8.5, 25 °C, with: enzyme-bound NAD(H)",240 ± 10

# Excerpt of the above:
Substance,substrate,conditions,kcat [s⁻¹]
B6 (enzyme D235A),C[S+](CC[C@H](N)C(=O)O)C[C@H]1O[C@@H](n2cnc3c(N)ncnc32)[C@H](O)[C@@H]1O,"pH 7.5, 50 °C, apparent",0.00117 ± 0.0005
